Assay results collected from several papers.
Each line is one published result; not all experiments were run side by side. Several values in a cell are separate wells, animals, samples, runs or records. Numbers after ± are the reported error.
B4GALT1: Beta-1,4-galactosyltransferase 1 (B4GALT1, Homo sapiens, UniProt P15291)
Chain of UniProt P15291 (whole entry, looked up): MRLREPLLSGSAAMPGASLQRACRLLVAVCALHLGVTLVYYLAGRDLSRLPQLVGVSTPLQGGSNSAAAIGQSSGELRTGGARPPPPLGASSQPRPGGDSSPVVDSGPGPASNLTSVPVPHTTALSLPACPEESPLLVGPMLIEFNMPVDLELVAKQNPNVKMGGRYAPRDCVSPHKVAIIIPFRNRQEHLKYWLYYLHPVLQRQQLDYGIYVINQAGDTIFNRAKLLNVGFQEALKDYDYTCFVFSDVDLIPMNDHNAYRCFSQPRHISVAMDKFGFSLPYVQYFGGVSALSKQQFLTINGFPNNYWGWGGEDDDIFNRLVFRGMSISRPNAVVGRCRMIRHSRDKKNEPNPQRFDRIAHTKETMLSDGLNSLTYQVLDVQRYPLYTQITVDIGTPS
GBA2: Beta-glucosidase (GBA2, Homo sapiens, UniProt Q9HCG7)
Chain of UniProt Q9HCG7 (whole entry, looked up): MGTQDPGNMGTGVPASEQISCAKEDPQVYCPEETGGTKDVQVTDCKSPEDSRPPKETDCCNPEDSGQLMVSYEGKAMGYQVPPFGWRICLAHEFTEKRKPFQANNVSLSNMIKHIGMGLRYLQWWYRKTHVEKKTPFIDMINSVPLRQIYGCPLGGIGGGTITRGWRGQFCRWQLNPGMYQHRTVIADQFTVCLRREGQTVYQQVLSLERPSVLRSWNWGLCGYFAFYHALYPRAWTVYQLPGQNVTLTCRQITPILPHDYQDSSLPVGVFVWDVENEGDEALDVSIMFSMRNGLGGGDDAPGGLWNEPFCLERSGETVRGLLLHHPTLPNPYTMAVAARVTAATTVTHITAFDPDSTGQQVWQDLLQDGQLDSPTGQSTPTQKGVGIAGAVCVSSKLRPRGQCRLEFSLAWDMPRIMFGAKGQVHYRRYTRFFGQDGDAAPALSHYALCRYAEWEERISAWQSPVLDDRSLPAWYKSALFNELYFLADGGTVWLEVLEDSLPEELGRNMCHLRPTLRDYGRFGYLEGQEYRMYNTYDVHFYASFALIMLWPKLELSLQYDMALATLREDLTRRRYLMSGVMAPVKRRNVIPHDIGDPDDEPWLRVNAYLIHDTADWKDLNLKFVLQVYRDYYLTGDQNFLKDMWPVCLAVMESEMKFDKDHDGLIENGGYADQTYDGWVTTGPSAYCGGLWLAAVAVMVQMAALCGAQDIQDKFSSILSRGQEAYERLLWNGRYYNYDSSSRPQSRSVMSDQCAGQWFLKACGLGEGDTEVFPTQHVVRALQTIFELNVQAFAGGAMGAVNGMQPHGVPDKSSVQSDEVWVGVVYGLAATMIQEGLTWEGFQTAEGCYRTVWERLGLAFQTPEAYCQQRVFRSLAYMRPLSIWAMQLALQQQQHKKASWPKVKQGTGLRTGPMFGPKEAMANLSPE
ADRA1B: Alpha-1B adrenergic receptor (ADRA1B, Homo sapiens, UniProt P35368)
Chain of UniProt P35368 (whole entry, looked up): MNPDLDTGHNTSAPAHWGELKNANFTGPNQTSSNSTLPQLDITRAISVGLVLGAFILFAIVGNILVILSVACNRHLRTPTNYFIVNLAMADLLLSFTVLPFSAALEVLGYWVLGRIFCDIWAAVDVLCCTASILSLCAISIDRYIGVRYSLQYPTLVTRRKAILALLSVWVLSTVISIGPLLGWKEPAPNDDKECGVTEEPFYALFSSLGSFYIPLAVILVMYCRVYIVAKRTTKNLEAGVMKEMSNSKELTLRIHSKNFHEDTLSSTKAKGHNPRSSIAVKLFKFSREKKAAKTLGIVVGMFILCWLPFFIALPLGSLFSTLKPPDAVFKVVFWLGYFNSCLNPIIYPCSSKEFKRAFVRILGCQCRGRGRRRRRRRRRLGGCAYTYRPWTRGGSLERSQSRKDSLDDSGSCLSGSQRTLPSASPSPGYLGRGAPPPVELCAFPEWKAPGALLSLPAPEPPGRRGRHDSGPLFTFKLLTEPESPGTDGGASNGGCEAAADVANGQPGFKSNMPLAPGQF
CASP3: Caspase-3 (CASP3, Homo sapiens, UniProt P42574)
Chain of UniProt P46089 (whole entry, looked up): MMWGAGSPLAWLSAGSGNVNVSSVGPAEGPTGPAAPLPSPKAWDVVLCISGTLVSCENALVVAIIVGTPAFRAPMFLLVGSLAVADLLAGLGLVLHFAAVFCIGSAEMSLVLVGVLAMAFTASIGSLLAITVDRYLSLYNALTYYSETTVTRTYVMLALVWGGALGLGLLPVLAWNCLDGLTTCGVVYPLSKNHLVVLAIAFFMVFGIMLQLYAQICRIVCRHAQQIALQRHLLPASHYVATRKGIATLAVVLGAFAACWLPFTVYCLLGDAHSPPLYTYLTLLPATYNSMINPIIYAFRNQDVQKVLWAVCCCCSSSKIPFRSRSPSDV
Chain of UniProt Q13148 (whole entry, looked up): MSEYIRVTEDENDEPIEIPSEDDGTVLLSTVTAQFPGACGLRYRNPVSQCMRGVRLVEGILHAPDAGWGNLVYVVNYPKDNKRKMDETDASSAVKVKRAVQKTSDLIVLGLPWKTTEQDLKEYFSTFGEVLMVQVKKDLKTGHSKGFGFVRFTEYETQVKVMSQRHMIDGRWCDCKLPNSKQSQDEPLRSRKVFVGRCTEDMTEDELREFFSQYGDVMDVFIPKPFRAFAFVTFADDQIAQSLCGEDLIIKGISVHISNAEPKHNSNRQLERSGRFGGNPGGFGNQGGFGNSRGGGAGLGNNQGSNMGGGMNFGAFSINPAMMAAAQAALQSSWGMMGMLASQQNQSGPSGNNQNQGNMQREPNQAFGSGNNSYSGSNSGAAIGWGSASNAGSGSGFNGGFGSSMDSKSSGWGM
Chain of UniProt P42574 (whole entry, looked up): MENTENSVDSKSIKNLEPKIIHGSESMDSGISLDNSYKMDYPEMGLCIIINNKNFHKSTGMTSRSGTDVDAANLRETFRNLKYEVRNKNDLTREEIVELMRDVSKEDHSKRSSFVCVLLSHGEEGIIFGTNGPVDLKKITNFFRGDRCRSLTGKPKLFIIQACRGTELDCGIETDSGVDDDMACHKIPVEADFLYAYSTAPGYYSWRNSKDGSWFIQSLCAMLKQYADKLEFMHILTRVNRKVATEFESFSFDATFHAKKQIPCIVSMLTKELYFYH
Chain of UniProt Q9ET22 (whole entry, looked up): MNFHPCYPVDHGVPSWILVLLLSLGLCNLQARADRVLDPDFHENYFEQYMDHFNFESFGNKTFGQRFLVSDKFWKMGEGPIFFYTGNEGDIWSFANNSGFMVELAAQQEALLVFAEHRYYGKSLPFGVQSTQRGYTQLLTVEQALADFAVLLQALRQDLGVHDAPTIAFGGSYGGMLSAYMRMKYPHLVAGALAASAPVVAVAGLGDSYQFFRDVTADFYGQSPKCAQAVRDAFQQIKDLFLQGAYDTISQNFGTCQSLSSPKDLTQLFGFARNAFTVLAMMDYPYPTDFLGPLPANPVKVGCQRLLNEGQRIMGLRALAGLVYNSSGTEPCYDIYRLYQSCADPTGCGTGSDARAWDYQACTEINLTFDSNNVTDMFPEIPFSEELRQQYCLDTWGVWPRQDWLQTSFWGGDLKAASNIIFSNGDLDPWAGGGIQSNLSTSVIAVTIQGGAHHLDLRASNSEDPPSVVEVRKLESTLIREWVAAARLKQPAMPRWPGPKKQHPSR
Chain of UniProt Q53HC9 (whole entry, looked up): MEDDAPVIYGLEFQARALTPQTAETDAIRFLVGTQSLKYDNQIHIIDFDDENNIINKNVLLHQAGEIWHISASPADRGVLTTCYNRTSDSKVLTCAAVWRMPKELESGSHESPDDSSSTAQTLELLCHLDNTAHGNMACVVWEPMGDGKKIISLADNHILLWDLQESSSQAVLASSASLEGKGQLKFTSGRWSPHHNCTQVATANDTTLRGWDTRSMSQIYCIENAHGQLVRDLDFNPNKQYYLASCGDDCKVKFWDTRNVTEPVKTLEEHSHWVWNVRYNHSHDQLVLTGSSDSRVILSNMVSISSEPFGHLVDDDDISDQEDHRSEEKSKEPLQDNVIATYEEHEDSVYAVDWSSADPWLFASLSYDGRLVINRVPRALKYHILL
Chain of UniProt Q9HB29 (whole entry, looked up): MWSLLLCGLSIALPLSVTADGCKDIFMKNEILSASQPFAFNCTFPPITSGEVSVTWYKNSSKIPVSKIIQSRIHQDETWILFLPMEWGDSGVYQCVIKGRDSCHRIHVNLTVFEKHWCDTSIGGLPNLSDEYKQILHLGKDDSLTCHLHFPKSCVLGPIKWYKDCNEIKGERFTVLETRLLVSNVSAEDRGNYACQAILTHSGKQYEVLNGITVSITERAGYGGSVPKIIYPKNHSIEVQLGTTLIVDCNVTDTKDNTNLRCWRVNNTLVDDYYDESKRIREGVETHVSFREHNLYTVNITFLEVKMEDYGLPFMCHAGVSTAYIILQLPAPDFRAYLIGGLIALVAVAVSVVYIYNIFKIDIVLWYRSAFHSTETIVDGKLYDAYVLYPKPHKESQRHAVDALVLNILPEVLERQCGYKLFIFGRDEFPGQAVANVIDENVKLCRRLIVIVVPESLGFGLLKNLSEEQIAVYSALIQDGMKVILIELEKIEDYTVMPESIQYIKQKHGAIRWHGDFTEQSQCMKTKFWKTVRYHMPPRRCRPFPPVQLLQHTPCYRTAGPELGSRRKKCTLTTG
Chain of UniProt P06748 (whole entry, looked up): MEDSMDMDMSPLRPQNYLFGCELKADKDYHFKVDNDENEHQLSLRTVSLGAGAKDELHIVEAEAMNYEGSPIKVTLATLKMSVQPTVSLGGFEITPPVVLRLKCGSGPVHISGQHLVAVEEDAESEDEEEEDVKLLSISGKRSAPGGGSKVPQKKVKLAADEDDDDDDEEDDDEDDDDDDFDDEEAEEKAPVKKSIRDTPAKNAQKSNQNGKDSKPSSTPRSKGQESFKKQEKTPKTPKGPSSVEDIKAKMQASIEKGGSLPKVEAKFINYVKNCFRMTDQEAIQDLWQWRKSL
Chain of UniProt Q5VWZ2 (whole entry, looked up): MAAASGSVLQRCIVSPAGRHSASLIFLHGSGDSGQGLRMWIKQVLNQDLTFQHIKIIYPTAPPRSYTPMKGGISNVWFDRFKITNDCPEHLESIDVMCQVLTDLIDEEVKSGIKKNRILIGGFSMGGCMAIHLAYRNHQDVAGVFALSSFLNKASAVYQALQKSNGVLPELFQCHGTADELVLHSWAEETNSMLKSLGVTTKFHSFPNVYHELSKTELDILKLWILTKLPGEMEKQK

For CC(C)Oc1cc(Cl)ccc1CNc1cc(-c2ccccc2)nc2ncnn12, the cAMP luminescence was 2450 a.u. and 3190 a.u. and 3160 a.u. and 4700 a.u. and 5080 a.u. (GPR3 (Homo sapiens, UniProt P46089); cAMP reporter; human cells; 10 µM; higher is more cAMP).
With CC[C@H](C)[C@H](NC(=O)N1CC(=O)Nc2ccccc21)C(=O)O the luminescence was 84500 a.u. (B4GALT1; enzyme activity, inhibitor, UDP-Glo; 100 µM; lower means stronger inhibition).
The remaining activity of N=C(N)c1ccc(CN(Cc2ccc(C(=N)N)cc2)C2CC2)cc1 is reported as 105% (PRMT5 (Homo sapiens, UniProt O14744); enzyme activity, inhibitor, radiometric; 20 µM).
OC[C@@H]1[C@@H](O)[C@H](O)[C@@H](O)CN1CCCCCOCc1ccc(-c2ccc(Br)cc2)cc1 gave a selectivity ratio of 58000 (GBA2; inhibitor, 4MU-β-D-glucopyranoside; HEK293T homogenates overexpressing GBA2; relative to: GBA1 IC50 over GBA2 IC50).
The agonist activity of O=c1cc(NCCCO)c2ccccc2o1 is reported as 1.14 ± 0.45% (ADRA1B; calcium mobilization, agonist; COS-7; 500 µM; relative to: 3 µM ionomycin).
CCCC[C@H](NC(=O)[C@H](CC(C)C)NC(=O)[C@H](CCC(N)=O)NC(=O)[C@@H](NC(=O)[C@H](CCC(=O)O)NC(=O)C(C)(C)NC(=O)[C@@H](NC(=O)C1(N)CCCC1)C(C)C)[C@@H](C)CC)C(=O)N[C@@H](Cc1c[nH]cn1)C(=O)N[C@@H](CCC(N)=O)C(=O)N[C@@H](CCCCNC(=O)[C@H](CCCNC(=N)N)NC(=O)CCCCCCCCCCCCCCCCC(=O)O)C(N)=O — result for “Emax (normalized AUC)”: 136 ± 30% (PTH1R (Homo sapiens, UniProt Q03431); cAMP response, agonist, GloSensor cAMP; GP-2.3; washout phase).
With CC(C)[C@@H]1NC(=O)[C@H](Cc2ccccc2)NC(=O)CSC[C@@H](C(N)=O)NC(=O)[C@H](CCC(=O)O)NC(=O)[C@H](CO)NC(=O)[C@H](Cc2c[nH]c3cccc(Cl)c23)NC(=O)[C@H](C2CCCCC2)NC(=O)[C@H](C(C)C)NC(=O)[C@H](Cc2ccc(O)cc2)NC(=O)[C@H](CC(=O)O)NC(=O)[C@H](Cc2c[nH]c3ccccc23)NC(=O)[C@H](Cc2ccc(N)nc2)NC(=O)[C@H](Cc2c[nH]c3ccc(Cl)cc23)NC(=O)[C@H](CCC(=O)O)NC1=O the remaining activity was 83.9% (Interleukin-1 receptor-like 2 (IL1RL2, Homo sapiens, UniProt Q9HB29); reporter gene (SEAP), inhibitor, HEK-Blue IL-36R reporter; HEK-Blue IL-36R cells; 0.0017 µM, 6 h, together with: IL-36β 0.03 ng/mL).
With CC(=O)N[C@@H](CC(C)C)C(=O)N[C@@H](CCC(=O)O)C(=O)N[C@@H](CCC1CCCCC1)C(=O)N[C@@H](CC(=O)O)C(=O)COC(=O)c1c(C)cccc1C the kinact/KI was 122000 M⁻¹ s⁻¹ (CASP3; enzyme activity, inhibitor).
O=C(N1CCCC1)n1cc(-c2ccc(-c3ccccc3)cc2)nn1 gave an SILAC ratio of 1.54 and 0.85 (Dipeptidyl peptidase 2 (Dpp7, Mus musculus, UniProt Q9ET22); probe labelling, inhibitor, competitive ABPP-SILAC, item: Dpp7; mouse T cells; concentration not given, 4 h, in situ, single peptide; relative to: treated over DMSO, lower = more inhibition).
Cc1cc(C)c2c(Cn3ccnc3)cc(=O)oc2c1 has an agonist activity of 1.43 ± 1.4% (ADRA1B; calcium mobilization, agonist; COS-7; 500 µM; relative to: 3 µM ionomycin).
Under IC50, O=C(Nc1ccccc1C(=O)N1CCCC1)C(C(F)(F)F)C(F)(F)F is recorded as “inactive” (Chymotrypsinogen A (Bos taurus, UniProt P00766); enzyme activity, inhibitor).
OC[C@@H]1[C@@H](O)[C@H](O)[C@@H](O)CN1CCCCCOCC(COCCCCCN1C[C@H](O)[C@@H](O)[C@H](O)[C@H]1CO)C12CC3CC(CC(C3)C1)C2 has a selectivity ratio of 5000 (GBA2; inhibitor, 4MU-β-D-glucopyranoside; HEK293T homogenates overexpressing GBA2; relative to: GCS IC50 over GBA2 IC50).
C[C@@H](Nc1nc(N[C@H](C)C(F)(F)F)nc(-c2cccc(Cl)n2)n1)C(F)(F)F gave a maximal inhibition of 110 ± 3.8% (IDH1 (Homo sapiens, UniProt O75874, R132H); enzyme activity; 1 h preincubation, mutant heterodimer, reverse reaction).
CN1CCCN(CC(=O)NC2CCc3c[nH]nc3C2)CC1 (centres unmarked) gave a luminescence of 58100 a.u. (B4GALT1; enzyme activity, inhibitor, UDP-Glo; 100 µM; lower means stronger inhibition).
With CCCCCCCCOCCCCCN1C[C@H](O)[C@@H](O)[C@H](O)[C@@H]1CO the selectivity ratio was 1000 (GBA2; inhibitor, 4MU-β-D-glucopyranoside; HEK293T homogenates overexpressing GBA2; relative to: GBA1 IC50 over GBA2 IC50).
N#CN1CC[C@H](C(=O)Nc2nc3c(s2)CN(C(=O)Cn2cc(COCCOCCOCCOCCNC(=O)CCCC[C@@H]4SC[C@@H]5NC(=O)N[C@@H]54)nn2)CC3)C1 gave an iBAQ abundance of 1.94e+06 (USP9X (Homo sapiens, UniProt Q93008); probe binding, affinity probe, neutravidin pull-down LC-MS/MS; HEK293T, cell lysate; 5 µM, 1 h, mean of three replicates, unit not given; higher = more pulled down).
For Cc1ccc(CN)cc1, the kcat was 0.2667 ± 0.00167 s⁻¹ (Maoa (Rattus norvegicus, UniProt P21396); substrate; pH 7.5, 25 °C, α,α-protio substrate).
With OC[C@@H]1[C@@H](O)[C@H](O)[C@@H](O)CN1CCCCCOCc1ccc(-c2ccccc2)cc1C(F)(F)F the selectivity ratio was 1670 (GBA2; inhibitor, 4MU-β-D-glucopyranoside; HEK293T homogenates overexpressing GBA2; relative to: GBA1 IC50 over GBA2 IC50).
O=C1c2sc(-c3ccc(N4CCC(CO)CC4)nc3F)nc2CCN1c1cccnc1 gave a specific binding of 0.786 nM and 1.03 nM and 0.956 nM and 1.14 nM (TAR DNA-binding protein 43, aggregated (TARDBP, Homo sapiens, UniProt Q13148); radioligand binding; human, FTLD-TDP type A insoluble extract; 2.52 nM).
The kinact/KI of CC(=O)N[C@@H](CC(C)C)C(=O)N[C@@H](CCC(=O)O)C(=O)N[C@H](C(=O)N[C@@H](CC(=O)O)C(=O)COC(=O)c1c(C)cccc1C)[C@@H](C)O is reported as 397000 M⁻¹ s⁻¹ (CASP3; enzyme activity, inhibitor).
For C=CC(=O)N1CCCC(n2c(=O)c3ncccc3n(Cc3ccc(Oc4ccccc4)cc3)c2=O)C1 (centres unmarked), the melting temperature was 47.9 °C and 46.8 °C (EARP and GARP complex-interacting protein 1 (EIPR1, Homo sapiens, UniProt Q53HC9); thermal proteome profiling, item: EIPR1; treated).
CC(/C=C/C(=O)NO)=C\[C@@H](C)C(=O)c1ccc(N(C)C)cc1 has a binding stoichiometry of 0.8 (HDAC8 (Homo sapiens, UniProt Q9BY41); ITC; phosphate buffer; concentration not given, pH 7.5).
CC(=O)N[C@@H](Cc1ccccc1Cl)C(=O)N[C@@H](CCC(=O)O)C(=O)N[C@@H](C)C(=O)N[C@@H](CC(=O)O)C(=O)COC(=O)c1c(C)cccc1C has a kinact/KI of 255000 M⁻¹ s⁻¹ (CASP3; enzyme activity, inhibitor).
CC(C)=CCC/C(C)=C/CC/C(C)=C/CN1C[C@H](O)[C@@H](O)[C@H](O)[C@H]1CO gave a selectivity ratio of 116 (GBA2; inhibitor, 4MU-β-D-glucopyranoside; HEK293T homogenates overexpressing GBA2; relative to: GCS IC50 over GBA2 IC50).
Cc1cc(C)nc(SCC(=O)Nc2ncc(Cc3cccc4ccccc34)s2)n1 gave a ΔTm of 3.75 °C (SIRT2 (Homo sapiens, UniProt Q8IXJ6); thermal stability, DSF; 25 µM).
Under “probe labeling increase”, Nc1nc(SCc2ccc([N+](=O)[O-])cc2)nn1S(=O)(=O)c1ccc2c(c1)CCO2 is recorded as 2.5 fold (LYPLAL1 (Homo sapiens, UniProt Q5VWZ2); enzyme activity, activator, gel-based ABPP; purified protein; concentration not given, together with: FP-rhodamine; relative to: DMSO).
CC(C)(C)COCCOCCN1C[C@H](O)[C@@H](O)[C@H](O)[C@@H]1CO gave a selectivity ratio of 43500 (GBA2; inhibitor, 4MU-β-D-glucopyranoside; HEK293T homogenates overexpressing GBA2; relative to: GBA1 IC50 over GBA2 IC50).
For Cc1ccc2c(c1)C(O)CC1(CCN(CC(O)c3ccc4c(c3)CC(C)O4)CC1)O2 (centres unmarked), the luminescence was 59800 a.u. (B4GALT1; enzyme activity, inhibitor, UDP-Glo; 10 µM; lower means stronger inhibition).
C[C@@H]1Cc2c([nH]c3ccccc23)[C@@H](c2c(F)cc(/C=C/C(=O)O)cc2F)N1C12CC(C1)C2 gave a H-score of 221 (Estrogen receptor (ESR1, Homo sapiens, UniProt P03372); immunohistochemistry; human patients, tumour biopsy; 25 to 300 mg, day 21, paired biopsies, average; direction not given).
Under “probe labelling ratio”, CCCCCC(O)/C=C/C=O (centres unmarked) is recorded as 0.65 (FUS (Homo sapiens, UniProt P35637); acylphosphate-ATP probe SILAC-ABPP; ZAK-transfected HEK293T; 100 µM, together with: acylphosphate-ATP probe; relative to: DMSO over compound-treated).
CC(C)CCC[C@@H](C)[C@H]1CC[C@H]2[C@@H]3CC=C4C[C@@H](OCCCCCN5C[C@H](O)[C@@H](O)[C@H](O)[C@@H]5CO)CC[C@]4(C)[C@H]3CC[C@]12C gave a selectivity ratio of 750 (GBA2; inhibitor, 4MU-β-D-glucopyranoside; HEK293T homogenates overexpressing GBA2; relative to: GBA1 IC50 over GBA2 IC50).
N=C(N)NCCC[C@H](NC(=O)[C@@H]1CCCN1C(=O)[C@H](CCCNC(=N)N)NC(=O)[C@@H]1CCCN1C(=O)[C@H](CCCNC(=N)N)NC(=O)[C@@H]1CCCN1C(=O)[C@H](CCCNC(=N)N)NC(=O)[C@@H]1CCCN1C(=O)[C@H](CCCNC(=N)N)NC(=O)[C@@H]1CCCN1C(=O)[C@H](CCCNC(=N)N)NC(=O)[C@@H]1CCCN1C(=O)[C@H](CCCNC(=N)N)NC(=O)[C@@H]1CCCN1C(=O)[C@H](CCCNC(=N)N)NC(=O)[C@@H]1CCCN1C(=O)[C@H](CCCNC(=N)N)NC(=O)[C@@H]1CCCN1C(=O)[C@H](CCCNC(=N)N)NC(=O)[C@@H]1CCCN1C(=O)[C@H](CCCNC(=N)N)NC(=O)[C@@H]1CCCN1C(=O)[C@H](CCCNC(=N)N)NC(=O)[C@@H]1CCCN1C(=O)[C@H](CCCNC(=N)N)NC(=O)[C@@H]1CCCN1C(=O)[C@H](CCCNC(=N)N)NC(=O)[C@@H]1CCCN1C(=O)[C@H](CCCNC(=N)N)NC(=O)[C@@H]1CCCN1C(=O)[C@H](CCCNC(=N)N)NC(=O)[C@@H]1CCCN1C(=O)[C@H](CCCNC(=N)N)NC(=O)[C@@H]1CCCN1C(=O)[C@H](CCCNC(=N)N)NC(=O)[C@@H]1CCCN1C(=O)[C@H](CCCNC(=N)N)NC(=O)[C@@H]1CCCN1C(=O)[C@H](CCCNC(=N)N)NC(=O)[C@@H]1CCCN1C(=O)[C@H](CCCNC(=N)N)NC(=O)[C@@H]1CCCN1C(=O)[C@H](CCCNC(=N)N)NC(=O)[C@@H]1CCCN1C(=O)[C@H](CCCNC(=N)N)NC(=O)[C@@H]1CCCN1C(=O)[C@H](Cc1ccc(O)cc1)NC(=O)[C@H](CO)NC(=O)CN)C(=O)O: “maximum particle dimension” 218 Å (Nucleophosmin (NPM1, Homo sapiens, UniProt P06748); SANS; 0.5 molar excess over NPM1, 25 °C).

Repeated from above:
OC[C@@H]1[C@@H](O)[C@H](O)[C@@H](O)CN1CCCCCOCC(COCCCCCN1C[C@H](O)[C@@H](O)[C@H](O)[C@H]1CO)C12CC3CC(CC(C3)C1)C2 has a selectivity ratio of 5000 (GBA2; inhibitor, 4MU-β-D-glucopyranoside; HEK293T homogenates overexpressing GBA2; relative to: GCS IC50 over GBA2 IC50).
Cc1cc(C)nc(SCC(=O)Nc2ncc(Cc3cccc4ccccc34)s2)n1 gave a ΔTm of 3.75 °C (SIRT2 (Homo sapiens, UniProt Q8IXJ6); thermal stability, DSF; 25 µM).
CC(/C=C/C(=O)NO)=C\[C@@H](C)C(=O)c1ccc(N(C)C)cc1 has a binding stoichiometry of 0.8 (HDAC8 (Homo sapiens, UniProt Q9BY41); ITC; phosphate buffer; concentration not given, pH 7.5).
